Assay results collected from several papers.
Each line is one published result; not all experiments were run side by side. “And” joins repeats or separate records; there may be more than shown. Numbers after ± are the reported error.

SMILES | target or system | assay | test system | conditions | how to read | measurement | result
O=S(=O)(N[C@H]1CCO[C@@H](C2c3ccccc3CCc3ccccc32)C1)c1ccc(OC(F)(F)F)cc1 | D425 | immunoblot, measured: AKT |  | concentration not given |  | phosphorylation level | decreased
Cn1ncc2cc(-c3cncc(Cl)c3N3CCC4(CCNC4=O)CC3)ccc21 | LS174T | gene expression, microarray, measured: DUSP6 mRNA |  | concentration not given, 4 h | relative to: untreated cells | log2 fold change | -1.12
CC12CCCC(NS(=O)(=O)c3ccccc3N)(C1)C1CC(C)(C)C1CC2 (stereo not shown) | HT-29 | cell growth or viability, CCK-8 |  | 10 µM |  | inhibition | < 50%
CNS(=O)(=O)Nc1nccc(Cc2c(C)c3ccc(Oc4ncccc4F)cc3oc2=O)c1F | CL-11 | cell viability |  | 7 days |  | IC50 | 9.77 nM
CCc1c(-c2ccc3[nH]ncc3c2)cnc(N)c1-c1ccc(O)cc1 | CHP-212 resistant sublines, USP7 V517F heterozygous |  |  | 50 µM |  | viability | 6.92%
CCC(=CCc1c(O)cc2c(c1O)C(=O)CC(c1cccc(O)c1OC)O2)CC (stereo not shown) | HeLa | cell growth or viability, MTT |  | 0.781 µM, 48 h |  | inhibition | 0.632%
CC(=O)Oc1ccccc1C(=O)[Se]CC(=O)Nc1cccc(C(F)(F)F)c1 | NCI60 leukemia subpanel | cell growth |  | 10 µM, 48 h, one-dose |  | mean growth percent | 17.8%
Cc1ncsc1-c1ccc(C(C)NC(=O)C2CC(O)CN2C(=O)C(NC(=O)CCCCCCCCCCN2CCCC(Nc3ncc(Cl)c(Nc4ccccc4S(=O)(=O)C(C)C)n3)C2)C(C)(C)C)cc1 (stereo not shown) | 22Rv1 | RNA-seq, measured: MEIS3P1 mRNA |  | concentration not given | relative to: DMSO | log2 fold change | -1.24
C[C@@H]1CC[C@@H]([C@](O)(CNCc2ccc(F)cc2)COCc2ccccc2)[C@H](OCc2ccccc2)C1 | A2780 | cell growth or viability, MTT |  | 10 µM, 72 h |  | inhibition | 33.7%
COC(=O)C1=C(C)Oc2ccc(Br)cc2C1C(C(C)=O)C(=O)OC (stereo not shown) | 3T3-L1 mature adipocytes | lipolysis, Oil Red O staining |  | IC20 |  | mean lipid content | 0.716 OD492
CC12CCCC(NS(=O)(=O)c3cccs3)(C1)C1CC(C)(C)C1CC2 (stereo not shown) | HT-29 | cell growth or viability, CCK-8 |  | 10 µM |  | inhibition | < 50%
CC(C)c1ccc(N(C)c2ccc3c(c2)OCC[C@H]3CNc2cnccc2C(=O)O)cc1 | DMS-79 | cell viability, CellTiter-Glo |  | 7 days |  | IC50 | 3.47 nM
CCN(CC)CC(=O)Nc1cccc(-n2cc(-c3ccc4ccc(-c5cn(-c6cccc(NC(=O)CN(CC)CC)c6)nn5)cc4c3)nn2)c1 | RCC4 | PCR array, measured: F3 |  | 5 x IC50, 2 h, normoxia | relative to: untreated | fold regulation | -1.37
CC[C@H](C)[C@H](NC(=O)[C@H](CO)NC(=O)[C@H](Cc1ccc(O)cc1)NC(=O)[C@H](CC(=O)O)NC(=O)[C@H](CO)NC(=O)[C@@H](NC(=O)[C@H](Cc1ccccc1)NC(=O)[C@@H](NC(=O)CNC(=O)[C@H](CCC(=O)O)NC(=O)[C@H](C)NC(=O)[C@@H](N)Cc1ccc(O)cc1)[C@@H](C)O)[C@@H](C)CC)C(=O)N[C@@H](C)C(=O)N[C@@H](CCSC)C(=O)N[C@@H](CC(=O)O)C(=O)N[C@@H](CCCCN)C(=O)N[C@H](C(=O)N[C@@H](Cc1c[nH]cn1)C(=O)N[C@@H](CCC(N)=O)C(=O)N[C@@H](CCC(N)=O)C(=O)N[C@@H](CC(=O)O)C(=O)N[C@@H](Cc1ccccc1)C(=O)N[C@H](C(=O)N[C@@H](CC(N)=O)C(=O)N[C@@H](Cc1c[nH]c2ccccc12)C(=O)N[C@@H](CC(C)C)C(=O)N[C@@H](CC(C)C)C(=O)N[C@@H](C)C(=O)N[C@@H](CCC(N)=O)C(=O)N[C@@H](CCCCN)C(=O)NCC(=O)N[C@@H](CCCCN)C(=O)N[C@@H](CCCCN)C(=O)N[C@@H](CC(N)=O)C(=O)N[C@@H](CC(=O)O)C(=O)N[C@@H](Cc1c[nH]c2ccccc12)C(=O)N[C@@H](CCCCN)C(=O)N[C@@H](Cc1c[nH]cn1)C(=O)N[C@@H](CC(N)=O)C(=O)N[C@H](C(=O)N[C@H](C(=O)N[C@@H](CCC(N)=O)C(=O)O)[C@@H](C)O)[C@@H](C)CC)C(C)C)[C@@H](C)CC | HeLa, SYFP2-GIPR and GIPR-mTurquoise | TIRF microscopy |  | 1 µM |  | GIPR homomer subcellular localisation | no effect
CC(=O)N[C@@H](Cc1ccc(O)cc1)C(=O)N1CSC[C@H]1C(=O)N[C@@H](C)C(=O)N[C@@H](CC(=O)O)C(=O)COC(=O)c1c(C)cccc1C | THP-1 cells, LPS-primed | pyroptosis, LDH release |  | 25 µM, LPS 1 µg/mL, 4 h, added: nigericin 5 µM, 2 h |  | cell lysis | 34.2%
CN1CCCNC(=O)c2cccc(c2)C(=O)NCCCN(C)CCCNc2cccc3c2C(=O)c2cccc(c2C3=O)NCCC1 | SAS | RNA-Seq, measured: SLF2 mRNA |  | 1 µM, 6 h | relative to: untreated cells | log2 fold change | 0.768
CS(=O)(=O)c1ccc(-c2ccc(C3CCCCC3)cc2)cn1 |  | liver microsome stability | dog liver microsomes | 1 µM |  | hepatic clearance | 28 mL/min/kg
COc1ccccc1-c1ccncc1C(=O)Nc1nnc(OCc2ccc(Cl)cc2)s1 | MDA-MB-231 |  |  | 0.375 µM |  | colony count | 37 and 27 and 33 and 23
O=C(N/N=C/c1ccc2c(ccc[n+]2Cc2ccccc2)c1)N/N=C/c1ccc2c(ccc[n+]2Cc2ccccc2)c1 | 22CTA telomeric G4-DNA antiparallel | FRET melting |  | 1 µM, K10 buffer, DNA 0.2 µM |  | ΔTm | 11.7 ± 1 °C
CCCCNc1ncc2c(/C=C/C(=O)N3CCC(OC)CC3)nn(Cc3cccc(C(F)(F)F)c3)c2n1 | FLO-1 | cell growth or viability, resazurin |  | 5 days |  | EC50 | > 30000 nM
CC[n+]1cccc2cc(/C=N/NC(=O)c3ccc4ccc(C(=O)N/N=C/c5ccc6c(ccc[n+]6CC)c5)nc4n3)ccc21 | 22CTA telomeric G4-DNA antiparallel | FRET melting |  | 1 µM, K10 buffer, DNA 0.2 µM |  | ΔTm | 15.9 ± 0.3 °C
O=C(CC(F)(F)F)Nc1ccc([C@H]2[C@@H](F)[C@@H](F)C[C@@H](F)[C@H]2F)cc1 |  | hepatocyte stability | cryopreserved human hepatocytes | 1 µM |  | hepatic clearance | 17 mL/min/kg

A few entries again:
SMILES | target or system | assay | test system | conditions | how to read | measurement | result
O=C(N/N=C/c1ccc2c(ccc[n+]2Cc2ccccc2)c1)N/N=C/c1ccc2c(ccc[n+]2Cc2ccccc2)c1 | 22CTA telomeric G4-DNA antiparallel | FRET melting |  | 1 µM, K10 buffer, DNA 0.2 µM |  | ΔTm | 11.7 ± 1 °C
CCCCNc1ncc2c(/C=C/C(=O)N3CCC(OC)CC3)nn(Cc3cccc(C(F)(F)F)c3)c2n1 | FLO-1 | cell growth or viability, resazurin |  | 5 days |  | EC50 | > 30000 nM
CC[n+]1cccc2cc(/C=N/NC(=O)c3ccc4ccc(C(=O)N/N=C/c5ccc6c(ccc[n+]6CC)c5)nc4n3)ccc21 | 22CTA telomeric G4-DNA antiparallel | FRET melting |  | 1 µM, K10 buffer, DNA 0.2 µM |  | ΔTm | 15.9 ± 0.3 °C
O=C(CC(F)(F)F)Nc1ccc([C@H]2[C@@H](F)[C@@H](F)C[C@@H](F)[C@H]2F)cc1 |  | hepatocyte stability | cryopreserved human hepatocytes | 1 µM |  | hepatic clearance | 17 mL/min/kg
